Experimental data pooled from the literature.
Target: Cytochrome P450 3A4 (CYP3A4, Homo sapiens, UniProt P08684)
UniProt P08684, sequence (whole entry, looked up): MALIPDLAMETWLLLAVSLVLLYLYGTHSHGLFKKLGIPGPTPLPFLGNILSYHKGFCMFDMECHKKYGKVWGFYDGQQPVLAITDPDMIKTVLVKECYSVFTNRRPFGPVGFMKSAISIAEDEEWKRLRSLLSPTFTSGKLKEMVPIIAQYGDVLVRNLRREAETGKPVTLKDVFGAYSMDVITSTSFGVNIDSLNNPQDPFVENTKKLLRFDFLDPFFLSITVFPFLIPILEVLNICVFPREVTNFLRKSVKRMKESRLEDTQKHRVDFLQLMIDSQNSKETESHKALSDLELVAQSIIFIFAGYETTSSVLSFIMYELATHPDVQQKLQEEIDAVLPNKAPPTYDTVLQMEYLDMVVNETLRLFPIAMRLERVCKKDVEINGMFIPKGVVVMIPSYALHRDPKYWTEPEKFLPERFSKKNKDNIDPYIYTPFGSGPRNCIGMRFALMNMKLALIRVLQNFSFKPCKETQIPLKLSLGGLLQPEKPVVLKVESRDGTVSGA

C=C(NC(=O)c1csc(-c2nc3c(cc2O)-c2nc(cs2)C(=O)NC(C(C)O)C(=O)NC(=C(C)OC)c2nc(cs2)C(=O)NC2c4nc(cs4)C(=O)NC(COC(=O)c4c5c6c(cccc6n4O)COC(=O)C(OC4CC(C)(O)C(N(C)C)C(C)O4)C2OC5)c2nc-3cs2)n1)C(N)=O (centres unmarked) — IC50 (enzyme activity, inhibitor; pH 7.4): > 50 µM
O=C(NC1CCC(F)(F)CC1)C(c1cncnc1)N(C(=O)C(F)Cl)c1ccc(OC(F)(F)F)cc1 (centres unmarked) — IC50 (enzyme activity, inhibitor; 10 (unit not given)): 37.8 µM
CC(C)(C)n1ncc2c(=O)n(Cc3cccc(F)c3)c(NCc3ccc(F)cn3)nc21 — IC50 (enzyme activity, inhibitor): 8.14 µM
N=C(N)SCc1ccccc1CSC(=N)N — IC50 (enzyme activity, inhibitor): > 10 µM
CCC1(CC)CC(=O)N(C2CCOc3ccc(C(=O)NC4CC(C)(C)Oc5ccccc54)cc32)C(=N)N1 (centres unmarked) — IC50 (enzyme activity, inhibitor): > 20 µM
NC(=O)c1ccc(C(=O)NOCc2ccc(Sc3cccc(Cl)c3)c(C(F)(F)F)c2)cc1 — IC50 (pooled human liver microsomes; 5 min): 10.5 µM
OCC1OC(n2cnc3c(NCc4ccc(Br)s4)ncnc32)C(O)C1O (centres unmarked) — IC50 (enzyme activity, inhibitor, fluorescence; pH 7.4, together with: 7-benzyloxy-4-trifluoromethylcoumarin): > 10 µM
CCC1(CC)CC(=O)N(C2c3cc(C(=O)NC4c5ccccc5CC4O)ccc3OC2(C)COC)C(=N)N1 (centres unmarked) — IC50 (enzyme activity, inhibitor): > 20 µM

Some of these lines once more:
CCC1(CC)CC(=O)N(C2c3cc(C(=O)NC4c5ccccc5CC4O)ccc3OC2(C)COC)C(=N)N1 (centres unmarked) — IC50 (enzyme activity, inhibitor): > 20 µM
